Measurements collected from several papers.
Values joined by “and” are separate records of one study, mostly repeats; a detail may differ. Numbers after ± are the reported error.
OPRD1: Delta-type opioid receptor (OPRD1, Homo sapiens, UniProt P41143)
UniProt P41143, sequence (whole entry, looked up): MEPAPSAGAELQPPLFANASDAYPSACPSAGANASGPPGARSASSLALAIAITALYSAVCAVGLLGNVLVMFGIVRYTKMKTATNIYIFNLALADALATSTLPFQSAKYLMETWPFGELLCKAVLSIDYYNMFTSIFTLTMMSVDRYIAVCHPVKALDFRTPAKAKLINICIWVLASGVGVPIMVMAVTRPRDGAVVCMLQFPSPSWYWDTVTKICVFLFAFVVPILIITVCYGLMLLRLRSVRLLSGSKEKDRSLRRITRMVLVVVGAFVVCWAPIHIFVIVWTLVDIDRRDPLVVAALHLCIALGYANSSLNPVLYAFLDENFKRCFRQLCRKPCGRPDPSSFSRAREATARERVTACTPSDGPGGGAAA

SMILES | tested on | assay | test system | setting | how to read | endpoint | value
COCCN1CCn2cc(C(=O)NCc3ccc(F)cc3F)c(=O)c(O)c2C1=O | human immunodeficiency virus 1 | single-round vector infection | integrase S230N |  |  | EC50 | 7.8 ± 0.5 nM
Cc1cc(/C=C/C#N)cc(C)c1Nc1nc(Nc2ccc(C#N)cc2)ncc1N | HIV-1 | viral replication, single-round infection | RT mutant K103N/Y181C |  |  | EC50 | 1.8 ± 0.1 nM
O=C(NCc1ccc(F)cc1F)c1cn2ccn(CCCCCO)c(=O)c2c(O)c1=O | human immunodeficiency virus 1 | single-round vector infection | integrase R263K |  |  | EC50 | 16.1 ± 1 nM
Cc1cc(/C=C/C#N)cc(C)c1-n1cnc2cnc(Nc3ccc(C#N)cc3)nc21 | HIV-1 | viral replication, single-round infection | RT mutant G190S |  |  | EC50 | 0.1 ± 0.01 nM
COCCCn1ccn2cc(C(=O)NCc3ccc(F)cc3F)c(=O)c(O)c2c1=O | human immunodeficiency virus 1 | single-round vector infection | integrase R263K |  |  | EC50 | 2.6 ± 0.1 nM
CC[C@@H](C)[C@@H](NC(=O)[C@@H](CCCCN)NC(=O)[C@@H](CCCCN)NC(=O)[C@@H](CC(C)C)NC(=O)[C@@H](Cc1c[nH]c2ccccc12)NC(=O)CN)C(=O)NCC(=O)N[C@H](CCCCN)C(=O)N[C@H](CCCCN)C(=O)N[C@@H](C(=O)N[C@H](CCC(=O)O)C(=O)N[C@H](CCCNC(=N)N)C(=O)N[C@@H](C(=O)NCC(=O)N[C@H](CCC(N)=O)C(=O)N[C@H](Cc1c[nH]cn1)C(=O)N[C@@H](C(=O)N[C@H](CCCNC(=N)N)C(=O)N[C@H](CC(=O)O)C(=O)N[C@H](C)C(=O)N[C@@H](C(=O)N[C@@H](C(=O)N[C@H](CCC(N)=O)C(=O)N[C@@H](C(=O)N[C@@H](C(=O)NCC(=O)N[C@@H](C(=O)N[C@H](C)C(=O)N[C@H](CCC(N)=O)C(=O)N[C@H](CCC(N)=O)C(=O)N[C@H](C)C(=O)N[C@H](C)C(=O)N[C@H](CC(N)=O)C(=O)N[C@@H](C(=O)N[C@H](C)C(=O)N[C@H](C)C(=O)N[C@@H](C(=O)N[C@H](CC(C)C)C(=O)N[C@H](CCCCN)C(N)=O)[C@H](C)O)C(C)C)C(C)C)[C@H](C)CC)[C@H](C)O)[C@H](C)CC)[C@H](C)O)[C@H](C)O)C(C)C)[C@H](C)CC | Acinetobacter baumannii |  | isolate RKI 19/09, CAMHB |  |  | MIC | 128 mg/L
CC(C)C[C@H](NC(=O)[C@H](CO[C@@H]1O[C@H](CO)[C@@H](O)[C@H](O)[C@H]1O)NC(=O)[C@H](CCCCN)NC(=O)[C@H](CC(C)C)NC(=O)[C@H](C)NC(=O)[C@H](CCCCN)NC(=O)[C@H](CCC(=O)O)NC(=O)[C@H](C)NC(=O)[C@H](CC(C)C)NC(=O)[C@H](CC(N)=O)NC(=O)[C@@H]1CCCN1C(=O)[C@H](CC(C)C)NC(=O)[C@H](Cc1ccccc1)NC(=O)CNC(=O)[C@H](NC(=O)[C@@H](N)Cc1ccc(O)cc1)[C@H](C)O)C(N)=O | OPRD1 | ligand displacement, radioligand |  | pH 7.5, cell membranes |  | Ki | 7.9 nM
CC[C@H](C)[C@H](NC(=O)[C@H](CCCCN)NC(=O)[C@H](Cc1ccc(O)cc1)NC(=O)[C@H](CCC(N)=O)NC(=O)[C@H](Cc1c[nH]cn1)NC(=O)[C@@H](NC(=O)[C@H](Cc1ccccc1)NC(=O)[C@H](Cc1c[nH]cn1)NC(=O)[C@@H](NC(=O)[C@@H](NC(=O)CNC(=O)[C@H](CCCNC(=N)N)NC(=O)[C@H](Cc1c[nH]c2ccccc12)NC(=O)[C@H](CC(C)C)NC(=O)[C@H](CO)NC(=O)[C@H](CCC(=O)O)NC(=O)[C@H](CC(C)C)NC(=O)[C@H](CCC(=O)O)NC(=O)[C@H](CC(N)=O)NC(=O)[C@H](CC(C)C)NC(=O)[C@H](CC(=O)O)NC(=O)[C@H](CO)NC(=O)[C@H](CCC(=O)O)NC(=O)[C@@H](NC(=O)[C@H](CC(C)C)NC(=O)[C@H](CCC(N)=O)NC(=O)[C@H](CCC(=O)O)NC(=O)[C@H](CCC(=O)O)NC(=O)[C@H](CC(C)C)NC(=O)[C@@H]1CCCN1C(=O)[C@@H](N)Cc1ccccc1)[C@@H](C)O)[C@@H](C)O)[C@@H](C)O)C(C)C)C(=O)N[C@@H](CCSC)C(=O)N1CCC[C@H]1C(=O)N[C@@H](Cc1ccccc1)C(=O)N[C@@H](CCCNC(=N)N)C(=O)N[C@@H](CCCCN)C(=O)N[C@@H](CC(C)C)C(=O)N[C@H](C(=O)N[C@@H](Cc1ccccc1)C(=O)N[C@@H](CCCCN)C(=O)N[C@@H](CCCNC(=N)N)C(=O)N[C@@H](CCCNC(=N)N)C(=O)N[C@@H](CCCCN)C(=O)N[C@@H](CC(N)=O)C(N)=O)C(C)C | Escherichia coli | broth microdilution | ATCC 35218 |  |  | MIC | > 50 µM
CC(C)C[C@H](NC(=O)[C@H](CO)NC(=O)[C@H](CCCCN)NC(=O)[C@H](CC(C)C)NC(=O)C(C)(C)NC(=O)[C@H](CCCCN)NC(=O)[C@H](CCC(=O)O)NC(=O)C(C)(C)NC(=O)[C@H](CC(C)C)NC(=O)[C@H](CC(N)=O)NC(=O)[C@@H]1CCCN1C(=O)[C@H](CC(C)C)NC(=O)[C@H](Cc1ccccc1)NC(=O)CNC(=O)[C@H](NC(=O)[C@@H](N)Cc1ccc(O)cc1)[C@H](C)O)C(N)=O | OPRD1 | ligand displacement, radioligand |  | pH 7.5, cell membranes |  | Ki | 23 nM
CC[C@H](C)[C@H](NC(=O)[C@H](CO)NC(=O)[C@H](Cc1ccc(O)cc1)NC(=O)[C@H](CC(=O)O)NC(=O)[C@H](CO)NC(=O)[C@@H](NC(=O)[C@H](Cc1ccccc1)NC(=O)[C@@H](NC(=O)CNC(=O)[C@H](CCC(=O)O)NC(=O)[C@@H](C)NC(=O)[C@@H](N)Cc1ccc(O)cc1)[C@@H](C)O)[C@@H](C)CC)C(=O)N[C@@H](C)C(=O)N[C@@H](CCSC)C(=O)N[C@@H](CC(=O)O)C(=O)N[C@@H](CCCCN)C(=O)N[C@H](C(=O)N[C@@H](Cc1c[nH]cn1)C(=O)N[C@@H](CCC(N)=O)C(=O)N[C@@H](CCC(N)=O)C(=O)N[C@@H](CC(=O)O)C(=O)N[C@@H](Cc1ccccc1)C(=O)N[C@H](C(=O)N[C@@H](CC(N)=O)C(=O)N[C@@H](Cc1c[nH]c2ccccc12)C(=O)N[C@@H](CC(C)C)C(=O)N[C@@H](CC(C)C)C(=O)N[C@@H](C)C(=O)N[C@@H](CCC(N)=O)C(=O)N[C@@H](CCCCN)C(=O)N1CCC[C@H]1C(=O)N[C@@H](CO)C(=O)N[C@@H](CO)C(=O)NCC(=O)N[C@@H](C)C(=O)N1CCC[C@H]1C(=O)N1CCC[C@H]1C(=O)N1CCC[C@H]1C(=O)N[C@@H](CO)C(N)=O)C(C)C)[C@@H](C)CC |  |  | HF-STZ diabetic mouse | continuous infusion, 100 nmol/kg/day, 4 weeks |  | cholesterol | 172 ± 4 mg/dL
Nc1ccn(C2CCC(OC(C(=O)O)P(=O)(O)O)C2)c(=O)n1 (racemic) | HIV-1 reverse transcriptase E138K | enzyme activity, inhibitor |  | added: poly(rI)·oligo(dC), [3H]dCTP | baseline: mutant over wild type | fold resistance | 1.5 fold
Cc1ccc(NS(=O)(=O)c2c(C(=O)N3CCCCCC3)c(C)n(C)c2C)c(Cl)c1 | Vaccinia virus | viral infection | HaCaT | 3.704 µM, 36 h | baseline: untreated | infection | 2.2% and 4.91% and 2.3%
CCCCCCCCCCCCCCCC(=O)N[C@@H](CCC(=O)NCCOCCOCCC(=O)NCCOCCOCCC(=O)NCCCC[C@H](NC(=O)[C@H](CC(=O)O)NC(=O)[C@H](CC(C)C)NC(=O)[C@H](Cc1ccc(O)cc1)NC(=O)[C@H](CCCCN)NC(=O)[C@H](CO)NC(=O)[C@H](Cc1ccc(O)cc1)NC(=O)[C@H](CC(=O)O)NC(=O)[C@H](CO)NC(=O)[C@@H](NC(=O)[C@H](Cc1ccccc1)NC(=O)[C@@H](NC(=O)CNC(=O)[C@H](CCC(N)=O)NC(=O)[C@@H](CO)NC(=O)[C@@H](N)Cc1c[nH]cn1)[C@@H](C)O)[C@@H](C)O)C(=O)N[C@@H](CCCNC(=N)N)C(=O)N[C@@H](CCCNC(=N)N)C(=O)N[C@@H](C)C(=O)N[C@@H](CCC(N)=O)C(=O)N[C@@H](CC(=O)O)C(=O)N[C@@H](Cc1ccccc1)C(=O)N[C@H](C(=O)N[C@@H](CCC(N)=O)C(=O)N[C@@H](Cc1c[nH]c2ccccc12)C(=O)N[C@@H](CC(C)C)C(=O)N[C@@H](CC(C)C)C(=O)N[C@@H](CC(N)=O)C(=O)N[C@H](C(=O)NCC(=O)NCC(=O)N1CCC[C@H]1C(=O)N[C@@H](CO)C(=O)N[C@@H](CO)C(=O)NCC(=O)N[C@@H](C)C(=O)N1CCC[C@H]1C(=O)N1CCC[C@H]1C(=O)N1CCC[C@H]1C(=O)N[C@@H](CO)C(N)=O)[C@@H](C)O)C(C)C)C(=O)O |  | refers to: AST | Sprague-Dawley rat, female | subcutaneous, 100 µg/kg once daily, 14 days |  | serum enzyme activity | 121 ± 36.1 U/L

A few entries again:
SMILES | tested on | assay | test system | setting | how to read | endpoint | value
Cc1cc(/C=C/C#N)cc(C)c1Nc1nc(Nc2ccc(C#N)cc2)ncc1N | HIV-1 | viral replication, single-round infection | RT mutant K103N/Y181C |  |  | EC50 | 1.8 ± 0.1 nM
CC[C@H](C)[C@H](NC(=O)[C@H](CO)NC(=O)[C@H](Cc1ccc(O)cc1)NC(=O)[C@H](CC(=O)O)NC(=O)[C@H](CO)NC(=O)[C@@H](NC(=O)[C@H](Cc1ccccc1)NC(=O)[C@@H](NC(=O)CNC(=O)[C@H](CCC(=O)O)NC(=O)[C@@H](C)NC(=O)[C@@H](N)Cc1ccc(O)cc1)[C@@H](C)O)[C@@H](C)CC)C(=O)N[C@@H](C)C(=O)N[C@@H](CCSC)C(=O)N[C@@H](CC(=O)O)C(=O)N[C@@H](CCCCN)C(=O)N[C@H](C(=O)N[C@@H](Cc1c[nH]cn1)C(=O)N[C@@H](CCC(N)=O)C(=O)N[C@@H](CCC(N)=O)C(=O)N[C@@H](CC(=O)O)C(=O)N[C@@H](Cc1ccccc1)C(=O)N[C@H](C(=O)N[C@@H](CC(N)=O)C(=O)N[C@@H](Cc1c[nH]c2ccccc12)C(=O)N[C@@H](CC(C)C)C(=O)N[C@@H](CC(C)C)C(=O)N[C@@H](C)C(=O)N[C@@H](CCC(N)=O)C(=O)N[C@@H](CCCCN)C(=O)N1CCC[C@H]1C(=O)N[C@@H](CO)C(=O)N[C@@H](CO)C(=O)NCC(=O)N[C@@H](C)C(=O)N1CCC[C@H]1C(=O)N1CCC[C@H]1C(=O)N1CCC[C@H]1C(=O)N[C@@H](CO)C(N)=O)C(C)C)[C@@H](C)CC |  |  | HF-STZ diabetic mouse | continuous infusion, 100 nmol/kg/day, 4 weeks |  | cholesterol | 172 ± 4 mg/dL
